Assay results of several laboratories.
A part holds a random share of what one study measured.

Sample 1 — technique: aptamer microarray, sandwich; molecule type: DNA with 2'F-ANA; matrix: in vitro; concentration: 200 nM; together with: Cy3 exosite-II aptamer, 400 nM; direction: higher = stronger binding
Target: Prothrombin, mature alpha-thrombin (F2, Homo sapiens, UniProt P00734)
Setting: whole 15-mer aptamer, many near background
Oligonucleotide	mean fluorescence intensity [a.u.]
GGTTGGTGTGGTTGG (2'F-ANA at 2 4 6 7 8 9 13)	203
GGTTGGTGTGGTTGG (2'F-ANA at 1 2 5 6 7 8 11 12 15)	110
GGTTGGTGTGGTTGG (2'F-ANA at 2 5 9 12 14 15)	47.7
GGTTGGTGTGGTTGG (2'F-ANA at 3 5 7 10 12 13 14 15)	50.5

Sample 2 — technique: protein-binding microarray; molecule type: double-stranded DNA, one strand shown; matrix: in vitro; concentration: 2200 nM top; setting: 60-bp whole probe; together with: salmon DNA 0.4 mg/ml; relative to: random background probes; direction: higher = stronger binding
Target: Interferon regulatory factor 7, full length, phosphomimetic (IRF7, Homo sapiens, UniProt Q92985, residues 1-503, S471D/S472D/S475D/S476D/S477D/S483D/S484D/S487D)
Construct (chain): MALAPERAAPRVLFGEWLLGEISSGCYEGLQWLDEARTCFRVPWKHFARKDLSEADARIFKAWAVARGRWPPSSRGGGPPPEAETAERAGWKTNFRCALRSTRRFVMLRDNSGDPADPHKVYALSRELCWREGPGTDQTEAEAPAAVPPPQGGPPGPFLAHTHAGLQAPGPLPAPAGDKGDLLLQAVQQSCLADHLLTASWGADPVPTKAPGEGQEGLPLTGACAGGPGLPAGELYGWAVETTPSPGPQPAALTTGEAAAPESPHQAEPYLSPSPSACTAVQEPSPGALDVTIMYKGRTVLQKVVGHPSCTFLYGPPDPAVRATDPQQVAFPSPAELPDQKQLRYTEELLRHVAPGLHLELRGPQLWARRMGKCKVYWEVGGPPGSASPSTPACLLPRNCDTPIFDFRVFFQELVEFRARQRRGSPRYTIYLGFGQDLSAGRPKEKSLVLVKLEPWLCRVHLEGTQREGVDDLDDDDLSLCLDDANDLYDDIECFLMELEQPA
Oligonucleotide	fitted relative affinity [z-score]
GCCTAGCACGACGGTATCGACACTGGGGAGGTGCTAGTCTTGATTCGCTTGACGCTGCTG	-0.435
GCCTAGCACTTTTTTTTTTTTTTTTGGAAGTGCTAGGTCTTGATTCGCTTGACGCTGCTG	1.85
GCCTAGCACGACGGTATCGGGACTGGGGTCGTGCTAGTCTTGATTCGCTTGACGCTGCTG	-0.393
GCCTAGCACGACGGTCTCCTTATTCTGACGTGCTAGGTCTTGATTCGCTTGACGCTGCTG	1.11

Sample 3 — technique: protein binding microarray; molecule type: double-stranded DNA, one strand shown; matrix: in vitro; concentration: not given; relative to: not given; direction: higher = stronger binding
Target: Histone acetyltransferase KAT6A, winged helix 2, GST fusion (KAT6A, Homo sapiens, UniProt Q92794, residues 85-181)
Setting: 8-mer, flanks averaged, mean of 2 arrays, mostly near background
Target sequence (chain): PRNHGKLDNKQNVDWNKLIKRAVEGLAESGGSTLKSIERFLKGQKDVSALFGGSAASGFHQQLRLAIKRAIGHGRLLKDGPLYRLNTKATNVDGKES
Oligonucleotide	E-score
TATTAACA	0.165
CAGCCGGA	0.198
GACTAGGC	0.0025

Further values, each from its own experiment
Substance	target	test	system	setting	scale	measurement	result
PhoQ, residues 284 288 289 292 302 303 TSTLRA	PhoP, residues 12 14 15 18 19 NMSSL (Escherichia coli, UniProt P23836)	Sort-seq, measured: YFP reporter	E. coli	PhoQ-PhoP variant library, together with: 10 µM Mg2+	relative to: high Mg2+ state, higher = stronger signaling	fold induction	1.69

Excerpt of the above (sample 1):
Oligonucleotide	mean fluorescence intensity [a.u.]
GGTTGGTGTGGTTGG (2'F-ANA at 2 4 6 7 8 9 13)	203
